Results gathered from unrelated publications.
Every numbered part comes from another study and shows a few of its results, in no order. Changes are numbered by the printed parent chain.

Set 1 — method: DHFR PCA, deep sequencing; medium: yeast; added: (+)-ABA 0.032 µM; baseline: wild-type fitted maximum; reading: higher = stronger binding
Target: ABI1, truncated, D143A, DHFR fusion (Arabidopsis thaliana)
Setting: methotrexate growth selection, single substitutions
Starting sequence: PYL1, truncated, DHFR fusion (Arabidopsis thaliana); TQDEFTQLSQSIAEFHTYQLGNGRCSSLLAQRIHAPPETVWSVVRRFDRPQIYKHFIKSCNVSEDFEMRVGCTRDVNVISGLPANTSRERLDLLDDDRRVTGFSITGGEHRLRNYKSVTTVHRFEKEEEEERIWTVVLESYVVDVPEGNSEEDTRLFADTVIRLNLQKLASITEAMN
`R69C`: “relative binding score” 19.7%.
Under “relative binding score”, `A84N` is recorded as 28.7%.
Under “relative binding score”, `L112R` is recorded as -3.85%.
`K168C`: “relative binding score” 4.05%.
For `I33S`, “relative binding score” read 3.32%.
Under “relative binding score”, `Y18P` is recorded as 4.12%.
`T6Q`: “relative binding score” 52.1%.
`R49N`: “relative binding score” 2.09%.
For `V121K`, “relative binding score” read 0.0535%.
For `N149Y`, “relative binding score” read 20.5%.
`S117G`: “relative binding score” 7.23%.
Under “relative binding score”, `I162N` is recorded as 4.38%.
Under “relative binding score”, `E67I` is recorded as 28.5%.

Set 2 — target: CCNB3, cyclin fold, Cln2 fusion (human); method: yeast growth competition, sequencing; medium: yeast; setting: weak parent motif; baseline: not given; reading: higher = stronger binding
Starting sequence: CDKN1B docking peptide (human); PSACRNLFGPVDH
Under “normalised enrichment score”, `C4R` is recorded as 1.06.
`G9V` — result for “normalised enrichment score”: 0.295.
For `F8Y`, “normalised enrichment score” read -0.144.
`D12C` — result for “normalised enrichment score”: 0.395.
For `S2T`, “normalised enrichment score” read 0.252.
`G9C`: “normalised enrichment score” 0.24.
For `G9T`, “normalised enrichment score” read 0.573.
For `R5K`, “normalised enrichment score” read 0.111.
`H13R` — result for “normalised enrichment score”: 0.424.
Under “normalised enrichment score”, `P10L` is recorded as 0.356.
For `A3T`, “normalised enrichment score” read 0.341.
For `P1C`, “normalised enrichment score” read 0.278.
Under “normalised enrichment score”, `S2R` is recorded as 0.488.
For `A3V`, “normalised enrichment score” read 0.811.
`S2Y`: “normalised enrichment score” -0.278.
Under “normalised enrichment score”, `H13Q` is recorded as 0.433.

Set 3 — target: CREB3, bZIP domain (human); method: DHFR protein complementation; medium: yeast; baseline: wild-type JUN-FOS pair; reading: higher = stronger binding
Setting: single substitutions, most at no-binding floor
Starting sequence: JUN, bZIP domain (human); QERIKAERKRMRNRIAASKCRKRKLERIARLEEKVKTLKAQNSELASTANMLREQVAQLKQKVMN; partner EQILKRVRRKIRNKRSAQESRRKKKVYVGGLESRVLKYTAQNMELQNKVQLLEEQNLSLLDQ
`S43Q` has a binding fitness of -1.37 natural log.
With `I28R` the binding fitness was -1.44 natural log.
`S47K` gave a binding fitness of -1.45 natural log.
`S47M` gave a binding fitness of -1.46 natural log.
With `T37E` the binding fitness was -1.29 natural log.
`M51Q` has a binding fitness of -1.47 natural log.
`T48Y` has a binding fitness of -1.37 natural log.
`Q55Y` gave a binding fitness of -1.47 natural log.
`N42Y` has a binding fitness of -1.46 natural log.
For `A46V`, the binding fitness was -1.34 natural log.
For `Q41E`, the binding fitness was -1.44 natural log.
`I28V` has a binding fitness of -1.44 natural log.
`K36M` has a binding fitness of -1.51 natural log.
With `E44T` the binding fitness was -1.5 natural log.

Set 4 — method: protein binding microarray; form: double-stranded DNA, one strand shown; medium: in vitro; tested at: not given; baseline: not given; reading: higher = stronger binding
Target: Histone acetyltransferase KAT6A, both winged helices, GST fusion (KAT6A, Homo sapiens, UniProt Q92794, residues 1-181)
Setting: 8-mer, flanks averaged, mean of 2 arrays, mostly near background
Residues (chain): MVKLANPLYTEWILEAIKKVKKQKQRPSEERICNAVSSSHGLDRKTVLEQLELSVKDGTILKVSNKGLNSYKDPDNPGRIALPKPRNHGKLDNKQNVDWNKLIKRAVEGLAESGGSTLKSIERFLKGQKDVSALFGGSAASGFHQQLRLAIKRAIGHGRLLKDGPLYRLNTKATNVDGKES
For `AATTGTAA`, the E-score was -0.0107.
`CGTCTAAA` has an E-score of 0.0043.
`CACCTCCA` has an E-score of -0.0882.
The E-score of `CACAACCC` is reported as -0.0722.
With `CTAGCTTA` the E-score was -0.107.
The E-score of `ACGATAAG` is reported as -0.0333.
The E-score of `CTCGTTCC` is reported as -0.0518.
With `ATACACCA` the E-score was -0.0932.
`ATTCGTCG` has an E-score of 0.0349.
The E-score of `AGGACGCC` is reported as 0.065.
With `ACGCTGAT` the E-score was 0.24.
With `GTGTGGAA` the E-score was -0.0857.
`ACGCCGCT` has an E-score of 0.303.
The E-score of `GGAGTGAC` is reported as -0.0361.
With `CAGTAAGA` the E-score was -0.0678.
With `TAGCGGAA` the E-score was 0.176.

Set 5 — method: protein-binding microarray; form: double-stranded DNA, one strand shown; medium: in vitro; tested at: 2540 nM top; setting: 60-bp whole probe; added: salmon DNA 0.4 mg/ml; baseline: random background probes; reading: higher = stronger binding; constant ends, left off below: GCCTAGCAC … GTCTTGATTCGCTTGACGCTGCTG
Target: Interferon regulatory factor 3, full length, phosphomimetic (IRF3, Homo sapiens, UniProt Q14653, residues 1-427, S386D/S396D/S398D/S402D/T404D/S405D)
Construct (chain): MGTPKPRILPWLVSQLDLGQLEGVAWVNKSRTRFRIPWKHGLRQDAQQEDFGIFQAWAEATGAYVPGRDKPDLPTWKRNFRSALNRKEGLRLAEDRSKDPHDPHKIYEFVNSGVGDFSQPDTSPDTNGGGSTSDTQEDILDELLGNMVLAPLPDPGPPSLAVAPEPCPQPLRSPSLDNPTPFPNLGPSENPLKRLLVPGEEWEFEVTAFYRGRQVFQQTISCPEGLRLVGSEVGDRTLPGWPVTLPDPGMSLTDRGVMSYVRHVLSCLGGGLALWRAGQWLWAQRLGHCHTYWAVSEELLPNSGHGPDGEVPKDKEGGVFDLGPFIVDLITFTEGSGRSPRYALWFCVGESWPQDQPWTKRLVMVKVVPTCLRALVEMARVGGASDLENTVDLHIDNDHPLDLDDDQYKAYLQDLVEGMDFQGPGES
For `TTAGGACTGGGGTATCGGTTAGTGCTA`, “fitted relative affinity” read 0.0185 z-score.
For `GACGGACTGGGAATGGGGACGTGCTAG`, “fitted relative affinity” read -0.626 z-score.
`TTAGGTTTCGACTTTCAGTTAGTGCTA`: “fitted relative affinity” 3.61 z-score.
For `GACGGTTTCGGCCTCGGGACGTGCTAG`, “fitted relative affinity” read 3.34 z-score.
`GACGGACTTGACTTTCGGGACGTGCTA`: “fitted relative affinity” 0.282 z-score.
Under “fitted relative affinity”, `GACGTTCTCCTACTGCTGACGTGCTAG` is recorded as 1.76 z-score.
Under “fitted relative affinity”, `TTAGAACTGCTACTGCTTTAGTGCTAG` is recorded as -0.666 z-score.
`CTCCTCTCTGGGTCAAAGGTGTGCTAG`: “fitted relative affinity” 0.566 z-score.
For `TTAGGTTTCCTTCTCCTTCAGTGCTAG`, “fitted relative affinity” read 10.4 z-score.
For `TCCTGTTTGATAATTTTTTTGTGCTAG`, “fitted relative affinity” read 0.63 z-score.
`TCATGGATATATATCATACTGTGCTAG`: “fitted relative affinity” 0.0853 z-score.
For `TGATTTTGGTCTTTCTGTTTGTGCTAG`, “fitted relative affinity” read 1.47 z-score.
`TTAGATATCAGACTGGATTAGTGCTAG`: “fitted relative affinity” 0.291 z-score.
`GACGGTCTCCTTATCCCGACGTGCTAG` — result for “fitted relative affinity”: 3.28 z-score.
For `ATGTGTTTAAGAATGTTTTTGTGCTAG`, “fitted relative affinity” read -0.0716 z-score.
Under “fitted relative affinity”, `TTAGGTCTCGGTATCGTTTAGTGCTAG` is recorded as 1.81 z-score.
For `TTAGCTCTCGGTATCGGTTAGTGCTAG`, “fitted relative affinity” read 1.68 z-score.
Under “fitted relative affinity”, `TTAGGTATCGACTGTCGGTTAGTGCTA` is recorded as 0.0688 z-score.
For `GACGAGCTGGGGTTTCGAGACGTGCTA`, “fitted relative affinity” read 0.027 z-score.

Excerpt of the above (set 2):
For `F8Y`, “normalised enrichment score” read -0.144.
`D12C` — result for “normalised enrichment score”: 0.395.
For `S2T`, “normalised enrichment score” read 0.252.
`G9C`: “normalised enrichment score” 0.24.
For `G9T`, “normalised enrichment score” read 0.573.
For `R5K`, “normalised enrichment score” read 0.111.
`H13R` — result for “normalised enrichment score”: 0.424.
